{"data": "Experimental data gathered from unrelated publications", "note": "A part holds a random share of what one study measured.", "UniProt Q05655, sequence (whole entry, looked up)": "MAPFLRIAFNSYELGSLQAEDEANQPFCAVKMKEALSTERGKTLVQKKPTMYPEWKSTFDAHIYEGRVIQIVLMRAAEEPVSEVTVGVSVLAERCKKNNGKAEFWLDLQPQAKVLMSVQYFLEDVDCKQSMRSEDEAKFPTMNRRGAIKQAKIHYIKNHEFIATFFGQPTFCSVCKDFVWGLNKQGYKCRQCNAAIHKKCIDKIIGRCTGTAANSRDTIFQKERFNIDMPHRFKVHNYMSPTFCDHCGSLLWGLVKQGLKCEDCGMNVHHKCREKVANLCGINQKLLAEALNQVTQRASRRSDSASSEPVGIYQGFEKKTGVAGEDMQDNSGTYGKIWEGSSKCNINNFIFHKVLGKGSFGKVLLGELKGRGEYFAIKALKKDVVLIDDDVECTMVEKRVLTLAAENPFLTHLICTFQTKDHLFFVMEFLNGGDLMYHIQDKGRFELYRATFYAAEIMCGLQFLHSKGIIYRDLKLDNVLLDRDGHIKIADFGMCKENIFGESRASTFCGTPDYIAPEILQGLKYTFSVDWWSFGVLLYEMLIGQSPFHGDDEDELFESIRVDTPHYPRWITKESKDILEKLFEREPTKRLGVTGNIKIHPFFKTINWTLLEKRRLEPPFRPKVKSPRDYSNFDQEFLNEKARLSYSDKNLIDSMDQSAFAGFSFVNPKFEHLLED", "UniProt Q96RG2, sequence (whole entry, looked up)": "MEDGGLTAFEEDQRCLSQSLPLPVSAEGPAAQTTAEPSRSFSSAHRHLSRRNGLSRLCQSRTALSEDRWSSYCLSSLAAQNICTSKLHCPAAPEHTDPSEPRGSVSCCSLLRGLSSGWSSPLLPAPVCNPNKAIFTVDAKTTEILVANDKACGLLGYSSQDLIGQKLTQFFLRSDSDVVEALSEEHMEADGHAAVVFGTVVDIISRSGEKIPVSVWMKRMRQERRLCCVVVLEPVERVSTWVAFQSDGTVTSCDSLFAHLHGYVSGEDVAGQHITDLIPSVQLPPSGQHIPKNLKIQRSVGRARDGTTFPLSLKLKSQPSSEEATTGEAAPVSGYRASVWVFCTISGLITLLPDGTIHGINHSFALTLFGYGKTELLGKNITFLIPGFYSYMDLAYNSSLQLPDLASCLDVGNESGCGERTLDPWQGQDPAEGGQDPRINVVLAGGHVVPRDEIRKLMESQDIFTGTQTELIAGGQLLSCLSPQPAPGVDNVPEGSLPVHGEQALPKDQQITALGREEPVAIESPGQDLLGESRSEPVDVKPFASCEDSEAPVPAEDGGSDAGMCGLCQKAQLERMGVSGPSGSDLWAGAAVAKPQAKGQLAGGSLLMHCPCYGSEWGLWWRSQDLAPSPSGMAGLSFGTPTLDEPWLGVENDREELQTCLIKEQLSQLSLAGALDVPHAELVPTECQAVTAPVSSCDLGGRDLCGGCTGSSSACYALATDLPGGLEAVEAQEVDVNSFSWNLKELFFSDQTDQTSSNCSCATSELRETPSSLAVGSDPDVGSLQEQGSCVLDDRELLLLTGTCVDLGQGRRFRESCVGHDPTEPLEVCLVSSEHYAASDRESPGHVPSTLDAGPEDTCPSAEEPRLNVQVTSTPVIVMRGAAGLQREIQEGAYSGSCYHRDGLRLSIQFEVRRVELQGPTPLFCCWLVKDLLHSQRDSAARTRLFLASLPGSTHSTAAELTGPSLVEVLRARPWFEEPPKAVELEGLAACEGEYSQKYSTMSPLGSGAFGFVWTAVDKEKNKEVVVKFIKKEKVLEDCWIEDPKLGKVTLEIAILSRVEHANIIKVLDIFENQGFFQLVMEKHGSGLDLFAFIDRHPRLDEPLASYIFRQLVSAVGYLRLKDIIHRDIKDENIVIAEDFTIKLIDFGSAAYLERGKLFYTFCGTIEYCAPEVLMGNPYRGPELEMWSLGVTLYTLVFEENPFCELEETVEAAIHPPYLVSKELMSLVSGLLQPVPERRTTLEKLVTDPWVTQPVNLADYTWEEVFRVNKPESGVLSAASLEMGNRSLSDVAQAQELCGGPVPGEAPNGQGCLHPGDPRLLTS", "UniProt P35968, sequence (whole entry, looked up)": "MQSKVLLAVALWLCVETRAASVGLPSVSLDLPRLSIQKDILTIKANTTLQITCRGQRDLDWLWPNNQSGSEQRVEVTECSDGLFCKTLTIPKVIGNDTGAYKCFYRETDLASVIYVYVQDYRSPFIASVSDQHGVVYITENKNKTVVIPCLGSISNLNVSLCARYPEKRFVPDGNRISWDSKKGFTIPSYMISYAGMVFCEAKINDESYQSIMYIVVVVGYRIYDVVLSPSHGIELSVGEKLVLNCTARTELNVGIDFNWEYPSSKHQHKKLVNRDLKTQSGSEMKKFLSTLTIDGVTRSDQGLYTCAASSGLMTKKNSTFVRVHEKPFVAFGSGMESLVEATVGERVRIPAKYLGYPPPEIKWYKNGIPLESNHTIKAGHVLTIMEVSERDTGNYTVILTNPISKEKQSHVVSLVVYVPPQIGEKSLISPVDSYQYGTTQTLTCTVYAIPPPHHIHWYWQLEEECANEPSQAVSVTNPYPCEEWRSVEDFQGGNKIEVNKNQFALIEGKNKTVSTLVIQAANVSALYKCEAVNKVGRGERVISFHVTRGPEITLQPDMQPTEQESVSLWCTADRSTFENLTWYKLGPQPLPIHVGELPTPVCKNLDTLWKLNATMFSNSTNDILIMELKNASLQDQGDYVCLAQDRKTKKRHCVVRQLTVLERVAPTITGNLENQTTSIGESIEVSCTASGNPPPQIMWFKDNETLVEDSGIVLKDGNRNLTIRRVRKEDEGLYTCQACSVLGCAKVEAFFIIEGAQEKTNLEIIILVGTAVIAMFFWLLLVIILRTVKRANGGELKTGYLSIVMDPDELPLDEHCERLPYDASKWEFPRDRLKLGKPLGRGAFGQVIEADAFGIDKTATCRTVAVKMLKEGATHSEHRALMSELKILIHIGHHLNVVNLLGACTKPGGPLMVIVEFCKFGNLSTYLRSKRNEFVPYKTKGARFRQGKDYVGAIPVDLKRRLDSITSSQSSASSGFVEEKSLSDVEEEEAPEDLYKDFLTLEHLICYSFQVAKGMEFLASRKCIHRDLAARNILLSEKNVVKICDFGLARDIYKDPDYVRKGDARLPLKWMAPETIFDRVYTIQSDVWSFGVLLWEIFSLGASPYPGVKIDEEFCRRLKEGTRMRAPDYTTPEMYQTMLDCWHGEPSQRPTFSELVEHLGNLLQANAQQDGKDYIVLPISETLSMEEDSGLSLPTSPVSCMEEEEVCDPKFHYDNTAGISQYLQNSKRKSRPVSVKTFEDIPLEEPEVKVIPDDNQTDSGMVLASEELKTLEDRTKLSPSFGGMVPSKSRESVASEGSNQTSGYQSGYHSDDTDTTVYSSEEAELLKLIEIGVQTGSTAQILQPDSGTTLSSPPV", "UniProt P62344, sequence (whole entry, looked up)": "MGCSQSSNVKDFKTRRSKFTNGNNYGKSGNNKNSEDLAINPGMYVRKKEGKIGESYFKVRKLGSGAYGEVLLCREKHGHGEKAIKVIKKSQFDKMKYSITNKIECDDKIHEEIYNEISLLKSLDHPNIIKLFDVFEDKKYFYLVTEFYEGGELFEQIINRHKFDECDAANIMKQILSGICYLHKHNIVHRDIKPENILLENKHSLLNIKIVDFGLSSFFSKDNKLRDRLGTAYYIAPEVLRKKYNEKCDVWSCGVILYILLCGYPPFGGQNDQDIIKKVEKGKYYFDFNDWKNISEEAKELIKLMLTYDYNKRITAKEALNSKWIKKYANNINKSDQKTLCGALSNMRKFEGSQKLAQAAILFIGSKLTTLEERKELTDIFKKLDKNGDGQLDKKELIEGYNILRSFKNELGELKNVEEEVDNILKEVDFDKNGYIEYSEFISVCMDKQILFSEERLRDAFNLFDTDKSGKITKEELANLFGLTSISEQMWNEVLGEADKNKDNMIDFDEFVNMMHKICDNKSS", "UniProt Q8NG66, sequence (whole entry, looked up)": "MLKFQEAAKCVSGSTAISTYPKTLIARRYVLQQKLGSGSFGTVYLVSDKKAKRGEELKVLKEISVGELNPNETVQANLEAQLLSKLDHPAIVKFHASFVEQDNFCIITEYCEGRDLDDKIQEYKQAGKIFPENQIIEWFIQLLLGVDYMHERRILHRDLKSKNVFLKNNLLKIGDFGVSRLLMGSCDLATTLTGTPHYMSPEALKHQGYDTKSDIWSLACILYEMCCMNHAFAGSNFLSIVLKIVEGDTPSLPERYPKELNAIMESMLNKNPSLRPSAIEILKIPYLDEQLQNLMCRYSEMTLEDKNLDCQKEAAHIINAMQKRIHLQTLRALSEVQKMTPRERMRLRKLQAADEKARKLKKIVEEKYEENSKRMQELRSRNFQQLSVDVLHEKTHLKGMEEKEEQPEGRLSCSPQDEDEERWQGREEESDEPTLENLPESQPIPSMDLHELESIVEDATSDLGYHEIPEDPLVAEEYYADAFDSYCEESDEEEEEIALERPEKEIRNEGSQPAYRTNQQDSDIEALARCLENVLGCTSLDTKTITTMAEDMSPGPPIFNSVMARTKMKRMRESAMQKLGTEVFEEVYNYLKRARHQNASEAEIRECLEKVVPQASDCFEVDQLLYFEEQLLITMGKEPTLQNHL"}
{"data": "Sample 1", "target": "Bromodomain-containing protein 4, BD1 (BRD4, Homo sapiens, UniProt O60885)", "observed": "acetyl-histone H4 peptide binding", "technique": "AlphaScreen displacement", "concentration": "50 µM"}
{"Structure (SMILES)": "CN1C(=O)NC(=O)C(=NNc2ccc(Br)cc2)C1=O", "inhibition": "0.7%"}
{"Structure (SMILES)": "COc1ccc(NC=C2C(=O)NC(=S)N(C)C2=O)cc1", "inhibition": "6.3%"}
{"Structure (SMILES)": "COc1ccc(N2C(=O)NC(=O)C(=CNc3ccc(F)cc3)C2=O)cc1", "inhibition": "12.6%"}
{"Structure (SMILES)": "COc1ccc2c(c1)/C(=C/c1cnc[nH]1)C(=O)N2", "inhibition": "51.1%"}
{"Structure (SMILES)": "CCN1C(=O)NC(=O)C(=CNc2ccc(Cl)c(C(=O)O)c2)C1=O", "inhibition": "12.7%"}
{"Structure (SMILES)": "CCCCN1C(=O)NC(=O)C(=C(C)Nc2cccc(C(=O)O)c2)C1=O", "inhibition": "4.6%"}
{"data": "Sample 2", "Structure (SMILES)": "CC(C)(C)c1cc(C=C(C#N)C#N)cc(Br)c1O", "observed": "enzyme activity", "action": "inhibitor", "concentration": "0.5 µM"}
{"target": "Calcium/calmodulin-dependent protein kinase type IV (CAMK4, Homo sapiens, UniProt Q16566)", "scale": "baseline: control", "remaining activity": "94.2%"}
{"target": "Cyclin-dependent kinase 1, with cyclin B (CDK1, Homo sapiens, UniProt P06493)", "remaining activity": "72.6%"}
{"target": "Serine/threonine-protein kinase PAK 3 (PAK3, Homo sapiens, UniProt O75914)", "scale": "baseline: control", "remaining activity": "96.9%"}
{"target": "Serine/threonine-protein kinase Nek11 (NEK11, Homo sapiens, UniProt Q8NG66)", "remaining activity": "87%"}
{"target": "Vascular endothelial growth factor receptor 2 (KDR, Homo sapiens, UniProt P35968)", "remaining activity": "97.8%"}
{"target": "Protein kinase C delta type (PRKCD, Homo sapiens, UniProt Q05655)", "remaining activity": "83%"}
{"target": "PAS domain-containing serine/threonine-protein kinase (PASK, Homo sapiens, UniProt Q96RG2)", "remaining activity": "96.7%"}
{"data": "Mixed results", "CAMK2A": "Calcium/calmodulin-dependent protein kinase type II subunit alpha (CAMK2A, Homo sapiens, UniProt Q9UQM7)", "UniProt Q9UQM7, sequence (whole entry, looked up)": "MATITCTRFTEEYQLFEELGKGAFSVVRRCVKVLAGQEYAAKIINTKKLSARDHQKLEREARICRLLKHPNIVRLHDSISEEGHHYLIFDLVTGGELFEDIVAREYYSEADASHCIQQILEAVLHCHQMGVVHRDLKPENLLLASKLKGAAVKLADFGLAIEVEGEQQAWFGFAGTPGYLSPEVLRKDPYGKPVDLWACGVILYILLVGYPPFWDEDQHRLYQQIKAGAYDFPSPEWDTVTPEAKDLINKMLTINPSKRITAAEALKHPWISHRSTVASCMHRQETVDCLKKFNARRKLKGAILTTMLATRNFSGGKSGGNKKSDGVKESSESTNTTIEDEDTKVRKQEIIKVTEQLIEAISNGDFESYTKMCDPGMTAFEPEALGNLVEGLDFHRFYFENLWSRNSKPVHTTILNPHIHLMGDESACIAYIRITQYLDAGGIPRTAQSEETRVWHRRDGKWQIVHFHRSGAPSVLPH"}
{"Compound": "NS(=O)(=O)c1cc(NC(=O)Cc2ccccc2)ccc1Oc1cccc(Cl)c1", "tested on": "Calcium-dependent protein kinase 1 (CDPK1, Plasmodium falciparum, UniProt P62344)", "test": "cell-free assay, competition with immobilised ligand", "conditions": "1 µM", "quantity": "remaining binding", "value": "91%"}
{"Compound": "C[C@]12CC[C@@H]3c4ccc(OC(=O)N(CCCl)CCCl)cc4CC[C@H]3[C@@H]1CC[C@@H]2OP(=O)(O)O", "tested on": "CAMK2A", "test": "enzyme activity, inhibitor, ADP detection", "conditions": "10 µM", "quantity": "inhibition", "value": "-12%"}
{"Compound": "CN[C@@H]1C[C@H]2O[C@@](C)([C@@H]1OC)n1c3ccccc3c3c4c(c5c6ccccc6n2c5c31)C(=O)NC4", "tested on": "normal organoid sample H", "test": "CellTiter-Glo", "system": "human, normal-adjacent epithelium", "conditions": "1 µM", "scale": "baseline: DMSO", "quantity": "viability", "value": "3.1%"}
{"Compound": "CN[C@@H]1C[C@H]2O[C@@](C)([C@@H]1OC)n1c3ccccc3c3c4c(c5c6ccccc6n2c5c31)C(=O)NC4", "tested on": "CAMK2A", "test": "enzyme activity, inhibitor, ADP detection", "conditions": "10 µM", "quantity": "inhibition", "value": "> 80%"}
{"Compound": "CONC(=O)[C@@H]1[C@@H](O)[C@@]2(O)c3c(OC)cc(OC)cc3O[C@@]2(c2ccc(Br)cc2)[C@H]1c1ccccc1", "tested on": "Eukaryotic initiation factor 4A-I (EIF4A1, Homo sapiens, UniProt P60842)", "test": "RNA clamping, fluorescence polarization", "conditions": "concentration not given, added: FAM-labelled poly r(AG)8 RNA", "quantity": "fluorescence polarization change", "value": "27.5 mP"}
{"note": "A few entries again (sample 1):"}
{"Structure (SMILES)": "CN1C(=O)NC(=O)C(=NNc2ccc(Br)cc2)C1=O", "inhibition": "0.7%"}
